# Measurements from different studies.
# Each line is one published result; not all experiments were run side by side.
Substance,target or system,test,system,setting,how to read,quantity,result
Nc1ncnc2c([C@@H]3N[C@H](CO)[C@@H](O)[C@H]3O)c[nH]c12,Zaire ebolavirus,antibody staining,human macrophages,0.8 µM,,antigen-positive cells,49.2%
TESIVRFPNITNL,,AIM,"peptide, CD8+ T cells from PBMC, human donors","HLA-B*40:01 restricted, unit not given",reference: positive over tested donors,frequency of responding donors,40
CC[C@H](C)[C@H](NC(=O)[C@H](CC(C)C)NC(=O)[C@H](Cc1c[nH]c2ccccc12)NC(=O)[C@H](CCC(N)=O)NC(=O)[C@@H](NC(=O)[C@H](Cc1ccccc1)NC(=O)[C@H](C)NC(=O)[C@H](CCCCNC(=O)COCCOCCNC(=O)COCCOCCNC(=O)CC[C@H](NC(=O)CCCCCCCCCCCCCCCCCCC(=O)O)C(=O)O)NC(=O)[C@H](CCC(N)=O)NC(=O)[C@H](C)NC(=O)[C@@H](NC(=O)[C@H](CCCCN)NC(=O)[C@H](CC(=O)O)NC(=O)[C@H](CC(C)C)NC(=O)C(C)(C)NC(=O)[C@@H](NC(=O)[C@H](CO)NC(=O)[C@H](Cc1ccc(O)cc1)NC(=O)[C@H](CC(=O)O)NC(=O)[C@H](CO)NC(=O)[C@@H](NC(=O)[C@H](Cc1ccccc1)NC(=O)[C@@H](NC(=O)CNC(=O)[C@H](CCC(=O)O)NC(=O)C(C)(C)NC(=O)[C@@H](N)Cc1ccc(O)cc1)[C@@H](C)O)[C@@H](C)O)[C@@H](C)CC)[C@@H](C)CC)C(C)C)C(=O)N[C@@H](C)C(=O)NCC(=O)NCC(=O)N1CCC[C@H]1C(=O)N[C@@H](CO)C(=O)N[C@@H](CO)C(=O)NCC(=O)N[C@@H](C)C(=O)N1CCC[C@H]1C(=O)N1CCC[C@H]1C(=O)N1CCC[C@H]1C(=O)N[C@@H](CO)C(N)=O,,,"healthy subjects, single ascending dose",0.5 mg,,adverse events (upper respiratory infection),33.3%
TFGGPSDSTGSNQNG,human CD4 T cells,AIM,peptide,,,responding donors,6%
O=C(O)/C=C/c1ccc(Cn2ccnc2)cc1,"Replicase polyprotein 1ab, main protease (rep, Severe acute respiratory syndrome coronavirus 2, UniProt P0DTD1)","reporter gene (Gaussia luciferase), inhibitor",,20 µM,,inhibition,0.626%

# For quick reference, copied from above:
Substance,target or system,test,system,setting,how to read,quantity,result
TFGGPSDSTGSNQNG,human CD4 T cells,AIM,peptide,,,responding donors,6%
